Measured values collected from several papers.
Each line is one published result; not all experiments were run side by side.
APLNR: Apelin receptor (APLNR, Homo sapiens, UniProt P35414)
UniProt P35414, sequence (whole entry, looked up): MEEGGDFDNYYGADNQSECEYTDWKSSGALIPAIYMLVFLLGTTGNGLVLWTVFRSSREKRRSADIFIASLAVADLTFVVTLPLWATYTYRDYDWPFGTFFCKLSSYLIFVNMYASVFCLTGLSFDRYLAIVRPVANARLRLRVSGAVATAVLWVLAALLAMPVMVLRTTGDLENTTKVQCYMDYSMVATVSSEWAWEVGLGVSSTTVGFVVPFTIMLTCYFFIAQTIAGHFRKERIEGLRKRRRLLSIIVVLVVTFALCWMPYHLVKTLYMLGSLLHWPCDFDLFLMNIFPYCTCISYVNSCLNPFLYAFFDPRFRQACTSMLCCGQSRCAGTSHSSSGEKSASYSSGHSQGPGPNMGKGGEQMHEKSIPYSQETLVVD
CA1: Carbonic anhydrase 1 (CA1, Homo sapiens, UniProt P00915)
UniProt P00915, sequence (whole entry, looked up): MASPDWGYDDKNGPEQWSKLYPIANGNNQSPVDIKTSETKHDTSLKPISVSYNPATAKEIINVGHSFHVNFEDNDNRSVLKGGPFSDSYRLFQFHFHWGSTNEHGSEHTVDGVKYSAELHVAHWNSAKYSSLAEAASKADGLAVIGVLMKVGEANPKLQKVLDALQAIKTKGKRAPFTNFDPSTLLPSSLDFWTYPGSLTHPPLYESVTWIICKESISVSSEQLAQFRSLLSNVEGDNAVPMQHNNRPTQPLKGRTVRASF
PFF0160c: Dihydroorotate dehydrogenase (quinone), mitochondrial (PFF0160c, Plasmodium falciparum, UniProt Q08210)
CA12: Carbonic anhydrase 12 (CA12, Homo sapiens, UniProt O43570)
UniProt O43570, sequence (whole entry, looked up): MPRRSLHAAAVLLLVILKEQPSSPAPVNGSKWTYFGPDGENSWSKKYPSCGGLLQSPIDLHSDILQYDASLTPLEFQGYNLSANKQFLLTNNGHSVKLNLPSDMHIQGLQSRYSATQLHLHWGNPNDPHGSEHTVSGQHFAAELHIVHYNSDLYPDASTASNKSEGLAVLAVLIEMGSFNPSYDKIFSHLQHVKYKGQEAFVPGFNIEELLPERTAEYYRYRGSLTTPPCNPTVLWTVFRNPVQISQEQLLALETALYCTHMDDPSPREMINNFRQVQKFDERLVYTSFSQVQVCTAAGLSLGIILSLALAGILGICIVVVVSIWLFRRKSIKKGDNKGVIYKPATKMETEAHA
sapA: sapA (Haemophilus influenzae, UniProt Q4QL73)
TMEM97: Sigma intracellular receptor 2 (TMEM97, Homo sapiens, UniProt Q5BJF2)
UniProt Q5BJF2, sequence (whole entry, looked up): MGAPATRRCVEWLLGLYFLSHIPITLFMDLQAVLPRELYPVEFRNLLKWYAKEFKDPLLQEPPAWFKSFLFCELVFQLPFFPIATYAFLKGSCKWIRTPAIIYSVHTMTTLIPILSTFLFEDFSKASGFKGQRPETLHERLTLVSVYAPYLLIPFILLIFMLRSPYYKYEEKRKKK
Penicillin-binding protein 2X: Penicillin-binding protein 2X (Streptococcus pneumoniae R6, UniProt P59676)
UniProt P09958, sequence (whole entry, looked up): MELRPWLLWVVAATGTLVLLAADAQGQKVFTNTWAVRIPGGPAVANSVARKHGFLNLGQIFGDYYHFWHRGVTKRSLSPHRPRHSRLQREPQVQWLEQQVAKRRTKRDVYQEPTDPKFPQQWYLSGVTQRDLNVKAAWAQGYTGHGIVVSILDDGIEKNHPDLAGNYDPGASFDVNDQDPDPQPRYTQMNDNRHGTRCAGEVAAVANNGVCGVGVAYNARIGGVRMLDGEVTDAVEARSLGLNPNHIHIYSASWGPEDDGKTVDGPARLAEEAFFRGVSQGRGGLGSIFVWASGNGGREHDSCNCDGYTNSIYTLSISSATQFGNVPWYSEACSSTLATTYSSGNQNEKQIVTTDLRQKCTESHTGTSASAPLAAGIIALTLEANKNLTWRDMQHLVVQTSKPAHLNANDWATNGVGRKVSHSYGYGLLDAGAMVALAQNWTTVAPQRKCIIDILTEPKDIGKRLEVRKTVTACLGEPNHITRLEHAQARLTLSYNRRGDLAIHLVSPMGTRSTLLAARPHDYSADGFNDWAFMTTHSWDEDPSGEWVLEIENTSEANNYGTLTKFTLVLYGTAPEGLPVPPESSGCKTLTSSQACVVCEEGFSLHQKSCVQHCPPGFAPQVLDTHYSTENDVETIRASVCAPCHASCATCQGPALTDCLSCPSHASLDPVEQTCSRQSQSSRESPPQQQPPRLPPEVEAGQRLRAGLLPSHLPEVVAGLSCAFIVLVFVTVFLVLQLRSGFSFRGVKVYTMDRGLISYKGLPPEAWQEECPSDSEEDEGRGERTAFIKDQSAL
UniProt Q9Y5Y6, sequence (whole entry, looked up): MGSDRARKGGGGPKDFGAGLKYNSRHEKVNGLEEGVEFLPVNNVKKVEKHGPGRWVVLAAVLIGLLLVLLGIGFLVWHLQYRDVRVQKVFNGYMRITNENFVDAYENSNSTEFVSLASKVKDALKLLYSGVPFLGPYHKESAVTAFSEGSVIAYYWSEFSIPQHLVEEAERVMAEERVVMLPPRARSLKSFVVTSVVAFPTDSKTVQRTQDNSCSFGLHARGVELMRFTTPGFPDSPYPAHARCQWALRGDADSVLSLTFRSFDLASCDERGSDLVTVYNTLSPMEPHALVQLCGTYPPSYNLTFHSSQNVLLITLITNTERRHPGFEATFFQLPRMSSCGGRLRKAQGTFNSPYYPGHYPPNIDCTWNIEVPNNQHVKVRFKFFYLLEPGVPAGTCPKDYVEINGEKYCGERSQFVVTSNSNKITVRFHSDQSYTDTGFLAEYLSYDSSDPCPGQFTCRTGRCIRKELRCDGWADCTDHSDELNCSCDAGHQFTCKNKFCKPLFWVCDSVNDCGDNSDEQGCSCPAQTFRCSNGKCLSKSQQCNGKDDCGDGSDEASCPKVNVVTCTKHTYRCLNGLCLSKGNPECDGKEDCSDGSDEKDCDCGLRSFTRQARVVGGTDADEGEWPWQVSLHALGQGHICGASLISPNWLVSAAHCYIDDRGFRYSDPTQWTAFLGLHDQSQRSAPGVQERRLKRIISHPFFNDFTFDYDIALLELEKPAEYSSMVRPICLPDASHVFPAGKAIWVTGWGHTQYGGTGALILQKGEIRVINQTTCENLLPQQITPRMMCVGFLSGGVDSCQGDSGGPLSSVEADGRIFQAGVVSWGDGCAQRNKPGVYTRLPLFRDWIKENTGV
UniProt P25440, sequence (whole entry, looked up): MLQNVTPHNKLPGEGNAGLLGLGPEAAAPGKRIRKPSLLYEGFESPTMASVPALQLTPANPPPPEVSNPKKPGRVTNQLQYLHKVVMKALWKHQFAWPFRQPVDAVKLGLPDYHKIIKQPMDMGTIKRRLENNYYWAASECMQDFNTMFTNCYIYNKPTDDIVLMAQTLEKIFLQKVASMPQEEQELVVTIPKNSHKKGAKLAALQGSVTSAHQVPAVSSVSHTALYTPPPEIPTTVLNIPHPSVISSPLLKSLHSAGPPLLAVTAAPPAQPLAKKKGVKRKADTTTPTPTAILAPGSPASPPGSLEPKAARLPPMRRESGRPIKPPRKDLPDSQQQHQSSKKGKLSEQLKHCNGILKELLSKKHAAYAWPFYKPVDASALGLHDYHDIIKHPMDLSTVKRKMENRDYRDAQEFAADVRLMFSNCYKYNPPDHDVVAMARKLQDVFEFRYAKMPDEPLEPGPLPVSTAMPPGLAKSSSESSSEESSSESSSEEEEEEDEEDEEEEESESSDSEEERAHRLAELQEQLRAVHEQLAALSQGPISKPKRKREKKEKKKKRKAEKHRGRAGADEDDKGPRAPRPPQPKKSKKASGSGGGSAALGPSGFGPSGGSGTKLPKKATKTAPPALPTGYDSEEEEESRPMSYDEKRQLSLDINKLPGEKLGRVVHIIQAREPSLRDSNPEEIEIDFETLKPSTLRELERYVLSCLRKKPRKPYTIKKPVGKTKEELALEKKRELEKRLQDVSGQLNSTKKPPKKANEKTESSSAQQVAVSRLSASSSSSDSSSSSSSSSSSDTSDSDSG
UniProt Q9HB89, sequence (whole entry, looked up): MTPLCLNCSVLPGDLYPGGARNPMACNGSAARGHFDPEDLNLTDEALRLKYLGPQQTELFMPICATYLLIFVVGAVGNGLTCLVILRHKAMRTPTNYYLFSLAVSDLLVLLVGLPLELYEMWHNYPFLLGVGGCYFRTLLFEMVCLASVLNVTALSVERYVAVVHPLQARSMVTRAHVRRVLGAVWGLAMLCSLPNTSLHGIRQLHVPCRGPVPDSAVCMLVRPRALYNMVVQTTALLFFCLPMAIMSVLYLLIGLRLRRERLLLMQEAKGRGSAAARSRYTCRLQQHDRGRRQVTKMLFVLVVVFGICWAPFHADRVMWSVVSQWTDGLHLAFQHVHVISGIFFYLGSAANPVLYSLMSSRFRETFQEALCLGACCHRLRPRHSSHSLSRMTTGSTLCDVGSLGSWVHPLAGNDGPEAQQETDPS
UniProt P20248, sequence (whole entry, looked up): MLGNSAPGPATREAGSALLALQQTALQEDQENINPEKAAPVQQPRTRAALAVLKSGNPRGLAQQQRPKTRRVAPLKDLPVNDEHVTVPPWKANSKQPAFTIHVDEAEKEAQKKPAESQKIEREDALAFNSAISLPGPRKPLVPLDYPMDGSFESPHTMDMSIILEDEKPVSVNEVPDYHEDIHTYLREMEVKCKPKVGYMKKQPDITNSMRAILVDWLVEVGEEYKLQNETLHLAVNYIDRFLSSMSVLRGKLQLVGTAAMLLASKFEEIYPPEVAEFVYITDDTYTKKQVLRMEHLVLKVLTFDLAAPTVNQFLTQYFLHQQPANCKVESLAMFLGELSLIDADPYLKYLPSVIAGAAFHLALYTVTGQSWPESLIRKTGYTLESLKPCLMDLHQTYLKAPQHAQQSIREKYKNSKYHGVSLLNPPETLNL
UniProt P08173, sequence (whole entry, looked up): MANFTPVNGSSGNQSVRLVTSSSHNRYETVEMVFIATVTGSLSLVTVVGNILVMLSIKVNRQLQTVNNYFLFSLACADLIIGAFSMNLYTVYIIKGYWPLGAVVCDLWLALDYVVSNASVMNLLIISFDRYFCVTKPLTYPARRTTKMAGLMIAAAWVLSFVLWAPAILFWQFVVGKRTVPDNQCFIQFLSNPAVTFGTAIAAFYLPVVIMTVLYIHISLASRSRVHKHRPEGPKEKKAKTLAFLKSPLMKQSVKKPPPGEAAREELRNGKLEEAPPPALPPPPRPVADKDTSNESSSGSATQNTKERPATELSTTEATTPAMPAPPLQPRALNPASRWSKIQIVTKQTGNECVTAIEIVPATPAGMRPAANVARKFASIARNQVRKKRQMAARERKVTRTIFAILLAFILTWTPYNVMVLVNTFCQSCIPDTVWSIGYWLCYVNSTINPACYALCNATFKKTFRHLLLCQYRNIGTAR

With CC[C@H](C)[C@H](NC(=O)[C@H](CCSC)NC(=O)[C@H](CC(N)=O)NC(=O)[C@@H](NC(=O)[C@H](Cc1ccc(O)cc1)NC(=O)[C@H](Cc1ccc(O)cc1)NC(=O)[C@H](CCCNC(=N)N)NC(=O)[C@H](CC(C)C)NC(=O)[C@H](CCC(=O)O)NC(=O)[C@H](CCCNC(=N)N)NC(=O)[C@H](CCC(=O)O)NC(=O)[C@H](Cc1c[nH]c2ccccc12)NC(=O)[C@H](CCC(=O)O)NC(=O)[C@H](CCCNC(=N)N)NC(=O)[C@H](CCC(=O)O)NC(=O)[C@@H](NC(=O)[C@H](CC(C)C)NC(=O)[C@H](Cc1c[nH]cn1)NC(=O)[C@H](CO)NC(=O)[C@@H]1CCCN1C(=O)[C@@H]1CCCN1)[C@@H](C)O)[C@@H](C)O)C(=O)N[C@@H](CCCNC(=N)N)C(=O)N[C@@H](CC(C)C)C(=O)N[C@@H](CC(C)C)C(=O)N[C@@H](CCSC)C(=O)O the EC50 was 2.9 µM (APLNR; calcium signal, agonist, fluorescence).
Cc1ccc(NC(=O)Nc2ccc3c(c2)C=CCP(=O)(O)O3)cc1 gave a Ki of greater than 10 µM (CA1; enzyme activity, inhibitor, stopped-flow).
The IC50 of CC(=O)c1c(Nc2c(C)cc(C)cc2C)oc(C)cc1=O is reported as greater than 10 µM (PFF0160c; enzyme activity, inhibitor, absorbance).
COc1cc2c(cc1OC)CN(CCc1ccc(NC(=O)c3cccc4c(=O)c5cccc(OC)c5[nH]c34)cc1)CC2 gave a Ki of 0.954 µM (CHRM4 (Homo sapiens, UniProt P08173); cell-free assay).
With Cc1cn([C@H]2C[C@H](OP(=O)(O)OC[C@H]3O[C@@H](n4cc(C)c(=O)[nH]c4=O)C[C@@H]3O)[C@@H](COP(=O)(O)OP(=O)(O)OP(=O)(O)O)O2)c(=O)[nH]c1=O the Kd was 0.044 µM (dgt (Salmonella enterica, UniProt A0A5H6DAK1, E129A/H126A); binding, ITC).
COc1cccc(NC(=O)Nc2ccc3c(c2)C=CCP(=O)(O)O3)c1 gave a Ki of greater than 10 µM (CA12; enzyme activity, inhibitor, stopped-flow).
CC[C@H](C)[C@H](NC(=O)CNC(=O)[C@H](C)NC(=O)[C@@H]1CCCN1C(=O)[C@@H](NC(=O)[C@H](CCCNC(=N)N)NC(=O)[C@@H](N)CO)[C@@H](C)CC)C(=O)N[C@@H](C)C(=O)NCC(=O)N[C@@H](CCC(=O)O)C(=O)N[C@@H](CCCNC(=N)N)C(=O)N[C@@H](CCCNC(=N)N)C(=O)N[C@@H](Cc1ccc(O)cc1)C(=O)N[C@@H](CO)C(=O)NCC(=O)NCC(=O)NCC(=O)NCC(=O)N[C@@H](CO)C(=O)N1CCC[C@H]1C(=O)N[C@@H](C)C(=O)N1CCC[C@H]1C(=O)N[C@@H](C)C(=O)N[C@@H](CCCCN)C(=O)O gave a Kd of 0.0038 µM (sapA; binding).
O=C(Nc1ccc2c(c1)C=CCP(=O)(O)O2)c1ccc(I)cc1 gave a Ki of greater than 10 µM (CA1; enzyme activity, inhibitor, stopped-flow).
For COc1ccc(-n2ccnc2SCC(=O)Nc2cccc(C(F)(F)F)c2)c(OC)c1, the IC50 was 0.379 µM (PFF0160c; enzyme activity, inhibitor, absorbance).
CNCCC(Oc1ccc(C(F)(F)F)cc1)c1ccccc1 (stereo not drawn) has a Ki of 0.792 µM (TMEM97; ligand displacement, radioligand).
c1ccc(OCCn2c(CNCC34CC5CC(CC(C5)C3)C4)nc3ccccc32)cc1 has a Kd of 55 µM (Penicillin-binding protein 2X; binding, MST).
O=C(Nc1ccc(Br)cc1)Nc1ccc2c(c1)C=CCP(=O)(O)O2 has a Ki of greater than 10 µM (CA2 (Homo sapiens, UniProt P00918); enzyme activity, inhibitor, stopped-flow).
Oc1ccc(-c2cc(COc3ccccc3C(F)(F)F)c(C3=CCNCC3)cc2COc2ccccc2C(F)(F)F)cc1 gave an IC50 of 2.66 µM (PFF0160c (Plasmodium falciparum, UniProt Q08210, E182D); enzyme activity, inhibitor, absorbance).
With [2H]c1c([2H])c([C@]2([2H])CCCN2C(=O)C(C)(C)Oc2ccc3cn[nH]c3c2)c([2H])c([2H])c1C([2H])([2H])[2H] the remaining binding was 91% (Ribosomal protein S6 kinase alpha-1, N-terminal kinase domain (RPS6KA1, Homo sapiens, UniProt Q15418); binding, competition with immobilised ligand; 1 µM).
With COc1ccccc1N1CCN(c2cccc(F)c2C#N)CC1 the IC50 was 1.12 µM (PFF0160c; enzyme activity, inhibitor, absorbance).
With O=C(Nc1ccc(Cl)cc1)Nc1ccc2c(c1)C=CCP(=O)(O)O2 the Ki was greater than 10 µM (CA12; enzyme activity, inhibitor, stopped-flow).
For CC(=O)Nc1sc(C)c(C)c1CN1CCc2ccccc2C1, the IC50 was 0.387 µM (PFF0160c; enzyme activity, inhibitor, absorbance).
With c1ccc2[nH]c(CNCC34CC5CC(CC(C5)C3)C4)nc2c1 the Kd was 925 µM (Penicillin-binding protein 2X; binding, MST).
The Kd of CC(C)C[C@H](NC(=O)[C@H](CCCNC(=N)N)NC(=O)[C@H](CCCNC(=N)N)NC(=O)[C@H](CCCCN)NC(=O)[C@@H](NC(=O)[C@@H]1CCCN1C(=O)[C@@H]1CCCN1C(=O)[C@H](CCCNC(=N)N)NC(=O)CNC(=O)c1ccc(-c2c3ccc(=[N+](C)C)cc-3oc3cc(N(C)C)ccc23)c(C(=O)[O-])c1)C(C)C)C(=O)N[C@@H](CC(=O)O)C(=O)N[C@@H](CC(C)C)C(=O)N[C@@H](CCC(=O)O)C(=O)N[C@H](C(=O)N[C@@H](CC(=O)O)C(=O)N[C@@H](Cc1c[nH]cn1)C(=O)N[C@@H](CCC(N)=O)C(=O)O)[C@@H](C)O is reported as 0.51 µM (Cyclin-A2 (CCNA2, Homo sapiens, UniProt P20248); binding, FP).
With O=C(Nc1ccc(F)cc1)Nc1ccc2c(c1)C=CCP(=O)(O)O2 the Ki was greater than 10 µM (CA12; enzyme activity, inhibitor, stopped-flow).
The Kd of COC(=O)C[C@@H]1N=C(c2c3ccccc3cc3ccccc23)c2cc(OC)ccc2-n2c(C)nnc21 is reported as 7.48 µM (Bromodomain-containing protein 2, BD2 (BRD2, Homo sapiens, UniProt P25440); binding, SPR).
CC(C)C[C@H](NC(=O)[C@H](CCCNC(=N)N)NC(=O)[C@H](CC(=O)O)NC(=O)[C@@H](N)CCC(=O)O)C(=O)N[C@@H](C)C(=O)N[C@H](C(=O)N[C@@H](CS)C(=O)N[C@@H](CCCNC(=N)N)C(=O)N[C@@H](CC(C)C)C(=O)N[C@@H](CCC(N)=O)C(=O)N1CCC[C@H]1C(=O)N[C@@H](CC(C)C)C(=O)N[C@@H](Cc1ccccc1)C(=O)N1CCC[C@H]1C(=O)O)C(C)C has an EC50 of 0.524 µM (APLNR; calcium signal, agonist, fluorescence).
CC1(C)CN(CCCCC(=O)N[C@H](Cc2ccc(O)c(I)c2)C(=O)N[C@H](Cc2ccccc2)C(=O)N[C@H](CCCCNC(=O)CCCCCCC(=O)NCCCC[C@H](NC(=O)N[C@@H](CCC(=O)O)C(=O)O)C(=O)O)C(=O)O)CC[N]2CC(C)(C)[S][Tc]2(=[O])[S]1 (stereo partly drawn) has a Kd of 0.0084 µM (FOLH1 (Homo sapiens, UniProt Q04609); binding, radioligand).
The EC50 of CC(C)C[C@H](NC(=O)[C@H](Cc1ccccc1)NC(=O)[C@H](Cc1ccc(O)cc1)NC(=O)CNC(=O)[C@H](CCCCN)NC(=O)[C@H](CO)NC(=O)[C@H](CCC(N)=O)NC(=O)CNC(=O)[C@@H](NC(=O)[C@H](CO)NC(=O)[C@@H]1CCCN1C(=O)[C@H](CO)NC(=O)[C@H](CCC(N)=O)NC(=O)[C@H](Cc1ccc(O)cc1)NC(=O)[C@H](CCC(=O)O)NC(=O)[C@H](C)NC(=O)[C@H](CCCCN)NC(=O)[C@@H](N)Cc1ccccc1)C(C)C)C(=O)N[C@@H](Cc1ccccc1)C(=O)N[C@@H](CCCNC(=N)N)C(=O)N1CCC[C@H]1C(=O)N[C@@H](CCCNC(=N)N)C(=O)N[C@@H](CC(N)=O)C(N)=O is reported as 0.000692 µM (NMUR1 (Homo sapiens, UniProt Q9HB89); β-arrestin recruitment, agonist).
For Cc1c(-c2ccccc2)oc2c(C(=O)OCCN3CCCCC3)cccc2c1=O, the Ki was greater than 10 µM (TMEM97; ligand displacement, radioligand).
With CC1CN(Cc2ccc(-c3ccc(C(=O)NCC4CCCO4)cn3)cc2)CC(C)O1 (stereo not drawn) the IC50 was 4.56 µM (PFF0160c; enzyme activity, inhibitor, absorbance).
For Cc1cccc(NCc2nc3ccccc3n2CCOc2ccccc2)c1, the Kd was 380 µM (Penicillin-binding protein 2X; binding, MST).
With CC[C@H](C)[C@H](NC(=O)[C@H](CO)NC(=O)[C@H](Cc1c[nH]cn1)NC(=O)[C@H](CC(C)C)NC(=O)[C@H](CC(C)C)NC(=O)[C@H](CCCNC(=N)N)NC(=O)[C@H](CS)NC(=O)[C@H](CC(C)C)NC(=O)[C@H](CCC(=O)O)NC(=O)[C@H](CCCCN)NC(=O)[C@@H](N)CO)C(=O)NCC(=O)N1CCC[C@H]1C(=O)N[C@@H](Cc1ccccc1)C(=O)N1CCC[C@H]1C(=O)O the EC50 was 2.23 µM (APLNR; calcium signal, agonist, fluorescence).
N=C(N)NCCC[C@H](NC(=O)[C@H](Cc1ccccc1)NC(=O)[C@H](CCC(N)=O)NC(=O)OCc1ccccc1)C(=O)c1nccs1 gave a Ki of 0.0011 µM (ST14 (Homo sapiens, UniProt Q9Y5Y6); cell-free assay).
CCc1nc2nc(C)cc(Nc3cc(C)cc(C)c3)n2n1 gave an IC50 of 0.318 µM (PFF0160c; enzyme activity, inhibitor, absorbance).
Fc1ccc([C@@H]2CCNC[C@H]2COc2ccc3c(c2)OCO3)cc1 gave a Ki of 3.1 µM (TMEM97; ligand displacement, radioligand).
For N=C(N)NCCC[C@H](NC(=O)[C@@H](N)CO)C(=O)N[C@@H](Cc1ccc(O)cc1)C(=O)N[C@@H](CCCCN)C(=O)N[C@@H](CCC(N)=O)C(=O)O, the Kd was 0.034 µM (sapA; binding).
COCCC(=O)N[C@@H](CCC(N)=O)C(=O)N[C@@H](Cc1ccccc1)C(=O)N[C@@H](CCCNC(=N)N)C(=O)c1nc2ccccc2s1 has a Ki of greater than 10 µM (Furin (FURIN, Homo sapiens, UniProt P09958); cell-free assay).
